{"data": "Values quoted from earlier work that unrelated publications cite"}
{"Structure (SMILES)": "C=C[C@@H]1C[C@]1(NC(=O)[C@@H]1C[C@@H](Oc2cc(-c3ccccc3)nc3cc(OC)ccc23)CN1C(=O)[C@@H](NC(=O)OC(C)(C)C)C(C)(C)C)C(=O)NS(=O)(=O)C1CC1", "system": "rat liver microsomes", "half-life": "2.7 h"}
{"Structure (SMILES)": "O=C([O-])CN1CCOCCN(CC(=O)[O-])Cc2cccc(n2)C1.[Mn+2]", "system": "aqueous solution", "conditions": "pH 7.4, 25 °C, together with: Cu(II)", "half-life": "1620 h"}
{"Structure (SMILES)": "Cc1cn(C2C=CC(COP(=O)(O)OP(=O)(O)OP(=O)(O)O)O2)c(=O)[nH]c1=O (stereo not shown)", "system": "CEM/0 cell extract", "half-life": "0.633 h"}
{"Structure (SMILES)": "CC(C)(C)C1=CC(=NNC(=O)c2ccncc2)C=C(C(C)(C)C)C1=O", "system": "mouse liver microsomes", "half-life": "< 0.0333 h"}
{"Structure (SMILES)": "CCc1nc(-c2ccc(-c3ccc(CCC(N)(CO)COP(=O)(O)O)cc3)cc2)co1 (stereo not shown)", "half-life": "~11 h"}
{"Structure (SMILES)": "O=C([O-])CN(CC(=O)[O-])C1CCCCC1N(CC(=O)[O-])CC(=O)[O-].[Mn+2] (stereo not shown)", "system": "aqueous solution", "conditions": "pH 7.4, 25 °C, together with: Cu(II)", "half-life": "12.3 h"}
{"Structure (SMILES)": "Cc1cnc(Nc2ccc(C#N)cc2)nc1Nc1c(F)cc(-c2ccc(C#N)cc2)cc1F", "system": "human liver microsomes", "half-life": "2.3 h"}
{"Structure (SMILES)": "CN1CCN(c2cc(-c3ccccc3CO)c(N(C)C(=O)C(C)(C)c3cc(C(F)(F)F)cc(C(F)(F)F)c3)cn2)CC1", "system": "patients, plasma", "conditions": "oral, dose not given, netupitant-palonosetron combination, together with: docetaxel 75 to 100 mg/m^2 IV", "half-life": "80.3 h"}
{"Structure (SMILES)": "CN1C(=O)C[C@@H](C(=O)N[C@@H](Cc2c[nH]cn2)C(=O)N2CCC[C@H]2C(N)=O)NC1=O", "test": "degradation", "system": "brain homogenate", "half-life": "1.07 h"}
{"Structure (SMILES)": "Cc1ccccc1-c1cc(N2CCNCC2)ncc1N(C)C(=O)C(C)(C)c1cc(C(F)(F)F)cc(C(F)(F)F)c1", "system": "healthy volunteers, plasma", "conditions": "oral, dose not given, netupitant-palonosetron, fasted", "half-life": "82.2 h"}
{"Structure (SMILES)": "C[C@@H](O)[C@H](NC(=O)OP(=O)(O)OC[C@H]1O[C@@H](n2cnc3c(N)ncnc32)[C@H](O)[C@@H]1O)C(=O)O", "conditions": "free compound, no metal ion", "half-life": "0.267 h"}
{"Structure (SMILES)": "Cc1ccccc1-c1cc(N2CC[N+](C)([O-])CC2)ncc1N(C)C(=O)C(C)(C)c1cc(C(F)(F)F)cc(C(F)(F)F)c1", "system": "healthy volunteers, plasma", "conditions": "oral, dose not given, netupitant-palonosetron, fasted", "half-life": "48.9 h"}
{"Structure (SMILES)": "CC[C@H](C)[C@H](NC(=O)CNC(=O)CNC(=O)c1ccc2c(c1)C(=O)OC21c2ccc(O)cc2Oc2cc(O)ccc21)C(=O)N[C@@H](Cc1ccc(O)cc1)C(=O)N[C@@H](C)C(=O)N[C@@H](C)C(=O)N1CCC[C@H]1C(=O)N(C)[C@@H](Cc1ccccc1)C(=O)N[C@@H](CCCCN)C(=O)N[C@@H](CCCCN)C(=O)N[C@@H](CCCCN)C(=O)N[C@@H](C)C(N)=O", "conditions": "together with: cellular proteases", "scale": "baseline: parent peptide", "half-life": "15 fold"}
{"note": "For quick reference, copied from above:"}
{"Structure (SMILES)": "O=C([O-])CN1CCOCCN(CC(=O)[O-])Cc2cccc(n2)C1.[Mn+2]", "system": "aqueous solution", "conditions": "pH 7.4, 25 °C, together with: Cu(II)", "half-life": "1620 h"}
